Assay results collected from several papers.
Lines come from different studies, so protocols differ. ± gives the spread as reported.
Sctr: Sctr (Rattus norvegicus, UniProt P23811)
Sequence of UniProt P23811 (whole entry, looked up): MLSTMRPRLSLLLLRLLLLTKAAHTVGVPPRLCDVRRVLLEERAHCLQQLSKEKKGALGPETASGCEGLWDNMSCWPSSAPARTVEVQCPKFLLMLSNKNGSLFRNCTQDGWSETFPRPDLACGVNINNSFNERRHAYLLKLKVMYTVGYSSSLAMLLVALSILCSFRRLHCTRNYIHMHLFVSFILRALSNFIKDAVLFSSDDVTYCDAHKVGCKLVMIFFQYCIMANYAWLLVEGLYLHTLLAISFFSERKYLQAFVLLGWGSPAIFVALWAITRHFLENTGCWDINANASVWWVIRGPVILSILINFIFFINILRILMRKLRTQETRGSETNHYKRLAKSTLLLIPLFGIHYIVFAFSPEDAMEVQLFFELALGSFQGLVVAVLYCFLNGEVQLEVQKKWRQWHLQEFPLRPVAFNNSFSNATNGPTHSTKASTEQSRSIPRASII
Sequence of UniProt P41145 (whole entry, looked up): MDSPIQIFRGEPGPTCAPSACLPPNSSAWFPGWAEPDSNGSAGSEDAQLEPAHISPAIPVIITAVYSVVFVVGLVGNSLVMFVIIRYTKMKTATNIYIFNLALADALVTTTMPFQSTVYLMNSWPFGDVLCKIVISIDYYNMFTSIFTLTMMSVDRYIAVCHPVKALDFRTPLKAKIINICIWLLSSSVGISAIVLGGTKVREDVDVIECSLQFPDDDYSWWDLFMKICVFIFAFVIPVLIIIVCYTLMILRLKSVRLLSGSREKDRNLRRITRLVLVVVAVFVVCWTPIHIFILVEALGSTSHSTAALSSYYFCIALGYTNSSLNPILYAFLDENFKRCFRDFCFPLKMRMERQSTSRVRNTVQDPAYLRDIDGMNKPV
Sequence of UniProt Q03111 (whole entry, looked up): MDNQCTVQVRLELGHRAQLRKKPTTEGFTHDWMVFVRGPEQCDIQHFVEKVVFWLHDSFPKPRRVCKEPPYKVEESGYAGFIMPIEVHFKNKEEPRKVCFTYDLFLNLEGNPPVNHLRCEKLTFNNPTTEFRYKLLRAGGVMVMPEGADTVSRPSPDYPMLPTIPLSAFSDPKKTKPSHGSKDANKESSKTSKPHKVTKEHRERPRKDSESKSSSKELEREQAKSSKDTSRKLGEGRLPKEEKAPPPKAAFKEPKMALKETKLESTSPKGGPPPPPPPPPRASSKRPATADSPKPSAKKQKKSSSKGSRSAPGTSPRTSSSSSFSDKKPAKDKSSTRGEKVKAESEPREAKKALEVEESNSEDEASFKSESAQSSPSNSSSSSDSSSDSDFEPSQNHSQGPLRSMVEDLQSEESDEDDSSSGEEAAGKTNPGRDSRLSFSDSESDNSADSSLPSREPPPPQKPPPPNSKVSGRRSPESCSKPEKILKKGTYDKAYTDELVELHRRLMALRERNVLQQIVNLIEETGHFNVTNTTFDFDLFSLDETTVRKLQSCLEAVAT
Sequence of UniProt P30550 (whole entry, looked up): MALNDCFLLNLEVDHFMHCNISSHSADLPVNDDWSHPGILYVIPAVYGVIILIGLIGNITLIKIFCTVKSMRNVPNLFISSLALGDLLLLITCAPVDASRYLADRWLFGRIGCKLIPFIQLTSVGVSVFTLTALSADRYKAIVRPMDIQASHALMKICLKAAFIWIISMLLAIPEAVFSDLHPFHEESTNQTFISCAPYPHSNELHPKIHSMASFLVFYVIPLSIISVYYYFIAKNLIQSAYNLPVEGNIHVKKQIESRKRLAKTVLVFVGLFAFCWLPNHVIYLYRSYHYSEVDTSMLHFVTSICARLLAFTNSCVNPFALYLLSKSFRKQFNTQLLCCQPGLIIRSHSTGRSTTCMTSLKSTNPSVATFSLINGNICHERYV
Sequence of UniProt O15552 (whole entry, looked up): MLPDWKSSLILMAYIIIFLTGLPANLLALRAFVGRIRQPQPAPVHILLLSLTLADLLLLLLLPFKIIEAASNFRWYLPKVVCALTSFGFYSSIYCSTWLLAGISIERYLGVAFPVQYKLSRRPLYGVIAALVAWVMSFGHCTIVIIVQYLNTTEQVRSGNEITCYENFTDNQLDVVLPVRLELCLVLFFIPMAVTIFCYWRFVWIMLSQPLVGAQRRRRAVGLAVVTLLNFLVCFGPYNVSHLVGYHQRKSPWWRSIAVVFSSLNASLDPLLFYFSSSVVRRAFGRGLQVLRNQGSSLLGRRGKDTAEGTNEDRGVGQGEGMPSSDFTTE
Sequence of UniProt P23576 (whole entry, looked up): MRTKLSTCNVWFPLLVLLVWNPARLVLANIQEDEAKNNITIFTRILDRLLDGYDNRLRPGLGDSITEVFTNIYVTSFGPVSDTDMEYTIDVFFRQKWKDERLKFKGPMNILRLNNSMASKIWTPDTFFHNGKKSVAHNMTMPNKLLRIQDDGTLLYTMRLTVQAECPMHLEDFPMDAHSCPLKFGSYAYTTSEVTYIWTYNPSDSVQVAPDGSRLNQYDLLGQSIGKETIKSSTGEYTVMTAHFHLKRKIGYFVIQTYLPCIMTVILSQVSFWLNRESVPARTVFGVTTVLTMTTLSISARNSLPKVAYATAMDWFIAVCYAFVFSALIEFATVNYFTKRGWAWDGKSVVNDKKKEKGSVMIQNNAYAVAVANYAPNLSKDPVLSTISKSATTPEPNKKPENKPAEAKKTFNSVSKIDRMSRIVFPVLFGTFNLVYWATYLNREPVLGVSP
Sequence of UniProt O95838 (whole entry, looked up): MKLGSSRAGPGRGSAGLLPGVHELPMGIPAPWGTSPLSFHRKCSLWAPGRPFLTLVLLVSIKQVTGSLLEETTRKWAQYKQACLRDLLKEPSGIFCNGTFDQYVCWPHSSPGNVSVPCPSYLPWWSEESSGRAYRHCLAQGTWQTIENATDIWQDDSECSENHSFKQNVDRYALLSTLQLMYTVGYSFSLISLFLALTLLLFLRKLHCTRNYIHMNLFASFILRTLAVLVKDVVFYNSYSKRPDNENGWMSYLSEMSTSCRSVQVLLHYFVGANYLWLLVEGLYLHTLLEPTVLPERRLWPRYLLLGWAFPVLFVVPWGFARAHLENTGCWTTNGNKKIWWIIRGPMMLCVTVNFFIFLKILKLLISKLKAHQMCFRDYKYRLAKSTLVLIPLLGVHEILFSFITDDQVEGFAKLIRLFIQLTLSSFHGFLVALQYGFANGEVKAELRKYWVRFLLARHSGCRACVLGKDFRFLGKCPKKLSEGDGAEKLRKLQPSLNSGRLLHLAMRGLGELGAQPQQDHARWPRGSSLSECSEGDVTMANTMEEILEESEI
Sequence of UniProt P43116 (whole entry, looked up): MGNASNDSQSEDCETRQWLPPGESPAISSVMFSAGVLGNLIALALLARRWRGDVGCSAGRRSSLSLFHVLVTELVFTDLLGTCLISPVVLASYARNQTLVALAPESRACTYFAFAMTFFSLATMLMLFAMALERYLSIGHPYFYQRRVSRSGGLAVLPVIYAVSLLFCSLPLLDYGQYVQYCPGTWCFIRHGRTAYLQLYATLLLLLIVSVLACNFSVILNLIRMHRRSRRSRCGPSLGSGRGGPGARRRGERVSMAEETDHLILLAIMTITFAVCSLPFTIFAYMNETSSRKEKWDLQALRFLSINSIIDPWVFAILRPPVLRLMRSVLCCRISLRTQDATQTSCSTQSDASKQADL
Sequence of UniProt P63138 (whole entry, looked up): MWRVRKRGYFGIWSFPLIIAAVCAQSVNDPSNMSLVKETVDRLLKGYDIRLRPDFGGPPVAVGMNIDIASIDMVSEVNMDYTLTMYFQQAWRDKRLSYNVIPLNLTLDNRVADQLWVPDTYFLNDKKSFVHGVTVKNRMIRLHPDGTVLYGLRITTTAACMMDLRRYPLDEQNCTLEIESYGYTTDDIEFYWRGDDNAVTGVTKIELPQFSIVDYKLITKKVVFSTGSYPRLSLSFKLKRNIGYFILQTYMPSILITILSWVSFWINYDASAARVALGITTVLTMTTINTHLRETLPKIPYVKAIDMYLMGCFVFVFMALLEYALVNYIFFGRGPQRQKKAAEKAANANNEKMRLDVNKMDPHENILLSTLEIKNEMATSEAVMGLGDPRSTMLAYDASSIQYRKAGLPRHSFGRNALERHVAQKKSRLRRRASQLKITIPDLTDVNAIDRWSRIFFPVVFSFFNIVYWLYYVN
Sequence of UniProt Q9WUP0 (whole entry, unmodified, looked up): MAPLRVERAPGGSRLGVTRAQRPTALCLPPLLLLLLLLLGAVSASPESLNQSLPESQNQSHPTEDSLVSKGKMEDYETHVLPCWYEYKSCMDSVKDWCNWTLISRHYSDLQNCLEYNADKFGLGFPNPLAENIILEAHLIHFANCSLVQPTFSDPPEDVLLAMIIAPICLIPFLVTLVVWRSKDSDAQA
Sequence of UniProt Q60755 (whole entry, unmodified, looked up): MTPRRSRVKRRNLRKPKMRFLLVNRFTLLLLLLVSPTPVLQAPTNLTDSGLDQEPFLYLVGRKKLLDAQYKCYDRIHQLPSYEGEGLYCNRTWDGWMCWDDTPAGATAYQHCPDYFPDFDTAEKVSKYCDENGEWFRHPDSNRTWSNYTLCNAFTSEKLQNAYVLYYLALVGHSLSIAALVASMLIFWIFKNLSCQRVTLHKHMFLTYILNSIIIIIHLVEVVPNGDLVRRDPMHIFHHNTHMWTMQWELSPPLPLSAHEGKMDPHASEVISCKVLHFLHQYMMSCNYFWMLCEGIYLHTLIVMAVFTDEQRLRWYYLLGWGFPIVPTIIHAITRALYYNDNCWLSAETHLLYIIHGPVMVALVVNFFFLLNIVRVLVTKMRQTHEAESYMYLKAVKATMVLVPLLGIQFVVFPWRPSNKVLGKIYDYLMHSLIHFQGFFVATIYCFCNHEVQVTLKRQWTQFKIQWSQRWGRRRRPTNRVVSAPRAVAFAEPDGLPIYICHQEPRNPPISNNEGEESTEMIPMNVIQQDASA

`CCCCN(CCc1ccccc1)CCc1cccc(O)c1` has an EC50 of 14 nM (Kappa-type opioid receptor (OPRK1, Homo sapiens, UniProt P41145); agonist).
With `CC(C)CN(CC(C)C)C(=O)/C=C/C=C/c1ccc2c(c1)OCO2` the EC50 was 24100 ± 7500 nM (Gabra2/Gabrb2, with γ2S subunit (Rattus norvegicus, UniProt P23576+P63138); GABA current potentiation, positive modulator, two-electrode voltage clamp; Xenopus oocytes expressing α2β2γ2S; together with: GABA EC3-7).
`C/C=C/C(=O)O` gave an EC50 of 170000 nM (Free fatty acid receptor 2 (FFAR2, Homo sapiens, UniProt O15552); agonist).
With `CC[C@H](C)[C@H](NC(=O)[C@H](Cc1ccccc1)NC(=O)[C@H](CC(=O)O)NC(=O)[C@H](CCCNC(=N)N)NC(=O)[C@H](C)NC(=O)[C@H](C)NC(=O)[C@H](CC(C)C)NC(=O)[C@H](CC(N)=O)NC(=O)[C@H](CC(=O)O)NC(=O)[C@H](CC(C)C)NC(=O)[C@@H](NC(=O)[C@@H](NC(=O)[C@H](CC(N)=O)NC(=O)[C@H](CCSC)NC(=O)[C@H](CCC(=O)O)NC(=O)[C@H](CC(=O)O)NC(=O)[C@H](CO)NC(=O)[C@H](Cc1ccccc1)NC(=O)[C@H](CO)NC(=O)[C@@H]1CCC[C@H]1NC(=O)[C@H](CC(=O)O)NC(=O)[C@H](C)NC(=O)[C@@H](N)Cc1c[nH]cn1)[C@@H](C)O)[C@@H](C)CC)C(=O)N[C@@H](CC(N)=O)C(=O)N[C@@H](Cc1c[nH]c2ccccc12)C(=O)N[C@@H](CC(C)C)C(=O)N[C@H](C(=O)N[C@@H](CCC(N)=O)C(=O)N[C@H](C(=O)N[C@@H](CCCCN)C(=O)N[C@H](C(=O)N[C@H](C(=O)N[C@@H](CC(=O)O)C(N)=O)[C@@H](C)O)[C@@H](C)CC)[C@@H](C)O)[C@@H](C)CC` the EC50 was 7.5 nM (Glucagon-like peptide 2 receptor (GLP2R, Homo sapiens, UniProt O95838); agonist).
For `O=C(NC1CCC1)c1ccc2nc(-c3ccccc3)cn2c1`, the EC50 was 3000 nM (Protein ENL, YEATS domain (MLLT1, Homo sapiens, UniProt Q03111); cell-based).
The EC50 of `CC(C)C[C@H](NC(=O)CNC(=O)[C@H](CCC(N)=O)NC(=O)[C@H](CC(C)C)NC(=O)[C@H](CC(C)C)NC(=O)[C@H](CCCNC(=N)N)NC(=O)[C@H](CCC(N)=O)NC(=O)[C@H](CC(C)C)NC(=O)[C@H](CCCNC(=N)N)NC(=O)[C@H](C)NC(=O)[C@H](CO)NC(=O)[C@H](CC(=O)O)NC(=O)[C@H](CCC(N)=O)NC(=O)[C@H](CC(C)C)NC(=O)[C@H](CCCNC(=N)N)NC(=O)[C@H](CO)NC(=O)[C@H](CC(C)C)NC(=O)[C@H](CCC(=O)O)NC(=O)[C@H](CO)NC(=O)[C@@H](NC(=O)[C@H](Cc1ccccc1)NC(=O)[C@@H](NC(=O)CNC(=O)[C@H](C)NC(=O)[C@H](CO)NC(=O)[C@@H](N)Cc1c[nH]cn1)[C@@H](C)O)[C@@H](C)O)C(=O)N[C@H](C(N)=O)C(C)C` is reported as 3.9 ± 0.6 nM (Sctr; cAMP production, agonist; CHO-SecR; 30 min, 37 °C, together with: 1 mM IBMX).
With `CC(C)C[C@H](NC(=O)CNC(=O)[C@H](C)NC(=O)[C@H](CC(C)C)NC(=O)[C@H](CCCNC(=N)N)NC(=O)[C@H](Cc1cnc[nH]1)NC(=O)[C@@H](NC(=O)[C@@H](NC(=O)[C@@H]1CSSC[C@H](NC(=O)[C@H](C)N)C(=O)N[C@@H](CC(=O)O)C(=O)N[C@@H]([C@@H](C)O)C(=O)N[C@@H](C)C(=O)N[C@@H]([C@@H](C)O)C(=O)N1)C(C)C)[C@@H](C)O)C(=O)N[C@@H](CC(C)C)C(=O)N[C@@H](CO)C(=O)N[C@@H](CCCNC(=N)N)C(=O)N[C@@H](CO)C(=O)NCC(=O)NCC(=O)N[C@H](C(=O)N[C@H](C(=O)N[C@@H](CCCCN)C(=O)N[C@@H](CC(N)=O)C(=O)N[C@@H](CC(N)=O)C(=O)N[C@@H](Cc1ccccc1)C(=O)N[C@H](C(=O)N1CCC[C@H]1C(=O)N[C@H](C(=O)N[C@@H](CC(N)=O)C(=O)N[C@H](C(=O)NCC(=O)N[C@@H](CO)C(=O)N[C@@H](CCCCN)C(=O)N[C@@H](C)C(=O)N[C@@H](Cc1ccccc1)C(N)=O)C(C)C)[C@@H](C)O)C(C)C)C(C)C)C(C)C` the EC50 was 31.6 nM (Calcr/Ramp2 (Mus musculus, UniProt Q60755+Q9WUP0, P10T); cAMP production, agonist; COS-7, transfected; 15 min, 37 °C, together with: IBMX 1 mM).
The EC50 of `O=C(O)COc1cccc(NC(=O)c2cc(-c3cccc(F)c3)ccc2F)c1` is reported as 2 nM (Prostaglandin E2 receptor EP2 subtype (PTGER2, Homo sapiens, UniProt P43116); calcium signal, agonist, fluorescence).
`CC(C)C[C@H](NC(=O)CNC(=O)[C@H](CCC(N)=O)NC(=O)[C@H](CC(C)C)NC(=O)[C@H](CC(C)C)NC(=O)[C@H](CCCNC(=N)N)NC(=O)[C@H](CCC(N)=O)NC(=O)[C@H](CC(C)C)NC(=O)[C@H](CCCNC(=N)N)NC(=O)[C@H](C)NC(=O)[C@H](CO)NC(=O)[C@H](CC(=O)O)NC(=O)[C@H](CCC(N)=O)NC(=O)[C@H](CC(C)C)NC(=O)[C@H](CCCNC(=N)N)NC(=O)[C@H](C)NC(=O)[C@H](CC(C)C)NC(=O)[C@H](CCC(=O)O)NC(=O)[C@H](CO)NC(=O)[C@@H](NC(=O)[C@H](Cc1ccccc1)NC(=O)[C@@H](NC(=O)CNC(=O)[C@H](CC(=O)O)NC(=O)[C@H](CO)NC(=O)[C@@H](N)Cc1c[nH]cn1)[C@@H](C)O)[C@@H](C)O)C(=O)N[C@H](C(N)=O)C(C)C` gave an EC50 of 1 ± 0.2 nM (Sctr; cAMP production, agonist; CHO-SecR; 30 min, 37 °C, together with: 1 mM IBMX).
With `CC(C)C[C@H](NC(=O)[C@H](CC(C)C)NC(=O)[C@H](Cc1c[nH]cn1)NC(=O)[C@@H](C)NC(=O)[C@@H](NC(=O)[C@H](C)NC(=O)[C@H](Cc1c[nH]c2ccccc12)NC(=O)[C@H](CCC(N)=O)NC(=O)[C@H](N)Cc1ccccc1)C(C)C)C(N)=O` the EC50 was 1.54 nM (Gastrin-releasing peptide receptor (GRPR, Homo sapiens, UniProt P30550); inositol phosphate, agonist).

Some of these lines once more:
With `CC(C)CN(CC(C)C)C(=O)/C=C/C=C/c1ccc2c(c1)OCO2` the EC50 was 24100 ± 7500 nM (Gabra2/Gabrb2, with γ2S subunit (Rattus norvegicus, UniProt P23576+P63138); GABA current potentiation, positive modulator, two-electrode voltage clamp; Xenopus oocytes expressing α2β2γ2S; together with: GABA EC3-7).
`C/C=C/C(=O)O` gave an EC50 of 170000 nM (Free fatty acid receptor 2 (FFAR2, Homo sapiens, UniProt O15552); agonist).
